Measured values collected from several papers.
Every numbered part comes from another study and shows a few of its results, in no order. Positions count from the first letter of the parent shown. ± gives the spread as reported.

Study 1 — technique: EMSA; molecule type: double-stranded DNA, one strand shown; quantity: binding; library: dsDNA
Target: icaR full length assumed (Staphylococcus epidermidis, UniProt Q5HKQ1)
Residues (chain): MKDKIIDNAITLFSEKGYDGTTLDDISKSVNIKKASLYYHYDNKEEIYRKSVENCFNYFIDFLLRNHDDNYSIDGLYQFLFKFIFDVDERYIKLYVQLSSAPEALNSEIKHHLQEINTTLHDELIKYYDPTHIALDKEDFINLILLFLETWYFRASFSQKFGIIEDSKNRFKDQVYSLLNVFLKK
GATTAGCATATGCTTTACAACCTAACTA: no binding
ACTAACGAAAGGTAGGTGAAAAAATGCA: binds
AACCTAACTAACGTTAGTTAGGTT: binds
ACAACCTAACTAACGTTAGTTAGGTTGT: binds
CCTAACTAACGAAAGGTAGGTGAAAAAA: binds

Single results of other studies
mwoIR full length assumed S310E: mwoIR full length assumed S310E (Methanothermobacter wolfeii, UniProt O59646)
UniProt O59646, sequence (whole entry, unmodified, looked up): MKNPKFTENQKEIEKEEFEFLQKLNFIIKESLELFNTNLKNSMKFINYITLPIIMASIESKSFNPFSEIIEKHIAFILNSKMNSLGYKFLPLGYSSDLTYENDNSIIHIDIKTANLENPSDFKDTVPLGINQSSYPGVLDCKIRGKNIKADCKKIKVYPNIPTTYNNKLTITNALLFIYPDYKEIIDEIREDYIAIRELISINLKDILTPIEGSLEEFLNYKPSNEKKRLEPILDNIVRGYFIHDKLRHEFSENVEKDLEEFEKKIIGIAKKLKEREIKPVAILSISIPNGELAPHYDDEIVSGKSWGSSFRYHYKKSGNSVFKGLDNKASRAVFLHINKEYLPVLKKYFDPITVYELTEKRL
P1: ELMO1 C-terminal region 482-727; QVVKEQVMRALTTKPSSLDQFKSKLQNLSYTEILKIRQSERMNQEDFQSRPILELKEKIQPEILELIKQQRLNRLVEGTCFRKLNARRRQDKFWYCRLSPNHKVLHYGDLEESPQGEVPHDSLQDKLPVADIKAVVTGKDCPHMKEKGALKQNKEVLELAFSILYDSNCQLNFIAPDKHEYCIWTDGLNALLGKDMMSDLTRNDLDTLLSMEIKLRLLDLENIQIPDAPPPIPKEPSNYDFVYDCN
GACAGTGCTATCTCAGCGACAGT (dsDNA) — Kd (mwoIR full length assumed (Methanothermobacter wolfeii, UniProt O59646); filter binding; double-stranded DNA, one strand shown; together with: Ca2+ 10 mM): 0.0069 ± 0.00093 nM
CGTAATCTGCAGGCATGGTGAATTT (ssDNA) — binding (gene 4 protein primase domain, 1-271 K122A (Escherichia phage T7, UniProt P03692); SPR; single-stranded DNA): no binding
GACAGTGCAATCTCTGCGACAGT (dsDNA) — Kd (mwoIR full length assumed S310R (Methanothermobacter wolfeii, UniProt O59646); filter binding; double-stranded DNA, one strand shown; together with: Ca2+ 10 mM): 110 ± 46.8 nM
CGTAATCTGCAGGCATGGTCAATTT (ssDNA) — Kd (gene 4 protein primase domain, 1-271 (Escherichia phage T7, UniProt P03692); SPR; single-stranded DNA; together with: ATP 0.2 mM, CTP 0.2 mM, Mg2+ 10 mM): 22000 ± 1800 nM
GACAGTGCGATCTCCGCGACAGT (dsDNA) — Kd (mwoIR full length assumed S310E; filter binding; double-stranded DNA, one strand shown; together with: Ca2+ 10 mM): 0.0277 ± 0.0026 nM
P1 K139D K145D K147D — relative binding (SifA (Salmonella); GST pull-down; read off a plot, together with: GST-SifA 10 µg, His-ELMO1-CT 5.0 µg; relative to: unchanged protein, higher = more binding): 0.48
GACAGTGCCATCTCGGCGACAGT (dsDNA) — Kd (mwoIR full length assumed S310E; filter binding; double-stranded DNA, one strand shown; together with: Ca2+ 10 mM): 17.8 ± 1.7 nM

Repeated from above (single results of other studies):
P1 K139D K145D K147D — relative binding (SifA (Salmonella); GST pull-down; read off a plot, together with: GST-SifA 10 µg, His-ELMO1-CT 5.0 µg; relative to: unchanged protein, higher = more binding): 0.48
